# Assay results pooled from the literature.
# Each numbered part is a random draw from the data of one study; scales do not carry over between parts. Positions count from the first letter of the parent shown.
# UniProt Q9UKS7, sequence (whole entry, looked up): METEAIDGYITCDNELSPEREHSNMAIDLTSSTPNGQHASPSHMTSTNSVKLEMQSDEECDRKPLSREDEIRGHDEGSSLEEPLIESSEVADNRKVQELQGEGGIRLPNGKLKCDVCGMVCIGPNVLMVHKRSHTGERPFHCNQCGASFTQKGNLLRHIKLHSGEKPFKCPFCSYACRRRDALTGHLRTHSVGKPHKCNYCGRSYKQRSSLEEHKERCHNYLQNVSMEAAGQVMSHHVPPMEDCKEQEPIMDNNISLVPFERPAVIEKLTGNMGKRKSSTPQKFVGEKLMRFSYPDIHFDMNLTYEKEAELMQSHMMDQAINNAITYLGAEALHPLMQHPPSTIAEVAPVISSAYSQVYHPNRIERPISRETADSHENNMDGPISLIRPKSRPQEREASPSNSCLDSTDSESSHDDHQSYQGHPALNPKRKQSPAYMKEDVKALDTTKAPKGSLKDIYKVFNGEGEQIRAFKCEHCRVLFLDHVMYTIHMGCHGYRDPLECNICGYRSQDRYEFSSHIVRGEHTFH
# UniProt Q9UQM7, sequence (whole entry, looked up): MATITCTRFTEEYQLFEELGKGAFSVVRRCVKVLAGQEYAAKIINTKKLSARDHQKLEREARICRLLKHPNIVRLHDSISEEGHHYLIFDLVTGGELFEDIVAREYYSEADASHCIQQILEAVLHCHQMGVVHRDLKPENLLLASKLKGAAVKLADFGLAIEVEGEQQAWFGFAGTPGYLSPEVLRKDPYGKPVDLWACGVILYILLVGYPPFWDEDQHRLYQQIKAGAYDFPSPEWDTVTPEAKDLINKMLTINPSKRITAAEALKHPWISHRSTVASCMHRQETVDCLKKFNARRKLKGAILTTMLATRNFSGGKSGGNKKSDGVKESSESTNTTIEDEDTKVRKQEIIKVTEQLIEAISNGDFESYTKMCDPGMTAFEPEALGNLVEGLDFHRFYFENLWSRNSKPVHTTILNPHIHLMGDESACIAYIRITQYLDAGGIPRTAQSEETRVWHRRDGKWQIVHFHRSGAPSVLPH
# UniProt Q96SW2, sequence (whole entry, looked up): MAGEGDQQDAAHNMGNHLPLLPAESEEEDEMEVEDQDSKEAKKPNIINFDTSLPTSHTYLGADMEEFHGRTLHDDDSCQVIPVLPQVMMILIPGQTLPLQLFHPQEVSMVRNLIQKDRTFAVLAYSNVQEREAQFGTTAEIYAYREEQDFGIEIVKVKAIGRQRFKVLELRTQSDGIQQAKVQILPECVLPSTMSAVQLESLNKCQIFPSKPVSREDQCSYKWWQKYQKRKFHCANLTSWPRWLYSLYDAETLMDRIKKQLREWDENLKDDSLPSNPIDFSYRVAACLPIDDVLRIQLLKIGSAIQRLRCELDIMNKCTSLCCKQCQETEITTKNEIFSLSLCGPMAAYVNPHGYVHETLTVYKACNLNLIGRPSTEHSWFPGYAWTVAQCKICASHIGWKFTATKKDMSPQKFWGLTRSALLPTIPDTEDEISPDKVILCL
# UniProt P9WI81, sequence (whole entry, looked up): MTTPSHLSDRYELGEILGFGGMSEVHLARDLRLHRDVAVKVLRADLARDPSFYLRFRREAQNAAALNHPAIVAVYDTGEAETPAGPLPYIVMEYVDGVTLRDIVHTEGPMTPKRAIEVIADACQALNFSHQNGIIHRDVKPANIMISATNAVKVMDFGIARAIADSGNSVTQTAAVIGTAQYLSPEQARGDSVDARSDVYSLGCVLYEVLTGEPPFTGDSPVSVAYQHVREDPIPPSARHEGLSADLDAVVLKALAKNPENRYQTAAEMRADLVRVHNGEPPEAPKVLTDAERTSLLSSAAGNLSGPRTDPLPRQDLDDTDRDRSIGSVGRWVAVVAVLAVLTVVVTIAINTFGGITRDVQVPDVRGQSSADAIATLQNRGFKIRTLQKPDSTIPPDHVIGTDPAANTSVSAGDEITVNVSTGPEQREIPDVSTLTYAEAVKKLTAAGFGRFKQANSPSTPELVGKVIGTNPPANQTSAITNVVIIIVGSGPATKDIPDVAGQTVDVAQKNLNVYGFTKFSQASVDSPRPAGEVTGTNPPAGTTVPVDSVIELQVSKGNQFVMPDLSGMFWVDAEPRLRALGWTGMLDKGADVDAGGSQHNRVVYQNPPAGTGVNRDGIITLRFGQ

# Sample 1
# Target: CCND3, cyclin fold, Cln2 fusion (human)
# Technique: yeast growth competition, sequencing
# Matrix: yeast
# Notes: weak parent motif
# Baseline: not given
# Reading: higher = stronger binding
# Parent: viral docking peptide; KKVKRRLFETREL
Variant,normalised enrichment score
L13A,0.0772
K4A,0.0511
K2A,0.117
K1A,0.184

# Single results of other studies
Structure (SMILES),tested on,assay,system,setting,measurement,value
O=C1CCC(N2Cc3c(ccc4c3OCC43CCN(Cc4ccccc4)CC3(F)F)C2=O)C(=O)N1 (centres unmarked),"CRBN/Zinc finger protein Helios (Homo sapiens, UniProt Q96SW2+Q9UKS7)","degrader, HiBiT",HEK293,123.5 nM,protein remaining,59.9%
COc1ccc2c(c[n+](C)c3c4cc5c(cc4ccc23)OCO5)c1OC,,,"human, microsomes or S9","2 µM, 0.5 h",remaining compound,73.7%
CO[C@@H](C)c1c(Nc2ccc([C@H](N(C)C(=O)C3CCS(=O)(=O)CC3)C(F)(F)F)cc2)cnc2cc(Cl)nn12,"pknB (Mycobacterium tuberculosis, UniProt P9WI81)","cell-free assay, competition with immobilised ligand",,1 µM,remaining binding,87%
C=C[C@H]1CN2CC[C@]3(C(=O)Nc4ccccc43)[C@@H]2C[C@@H]1/C(=C\OC)C(=O)OC,"CAMK2A (Homo sapiens, UniProt Q9UQM7)","enzyme activity, inhibitor",,10 µM,inhibition,-77%

# For quick reference, copied from above (sample 1):
Variant,normalised enrichment score
L13A,0.0772
